Experimental data pooled from the literature.
Each line is one published result; not all experiments were run side by side.
CSF1R: Macrophage colony-stimulating factor 1 receptor (CSF1R, Homo sapiens, UniProt P07333)
CSF1R autoinhibited: Macrophage colony-stimulating factor 1 receptor, autoinhibited (CSF1R, Homo sapiens, UniProt P07333)

CNC1C[S+]2CC[S+]3CC[S+](C1)[Ru-4]321([N]=C=S)[n]2c3ccc(OC)cc3c3c4c(c5cc(F)c[n+]1c5c32)C(=O)NC4=O (centres unmarked) — remaining binding (CSF1R; KinomeScan; 0.1 µM; relative to: untreated): 55%
CC(C)=CC1OC(C)(C)C2C=C3C(=O)C(Cl)=CC(O)C3C3C(O)C4OC4C(=O)C132 (centres unmarked) — remaining binding (CSF1R; cell-free assay, competition with immobilised ligand; 10 µM): 92%
CNC(=O)C1CCN(c2cc(C)c(F)cc2NC(=O)c2ccc(-c3cc(O)ccc3C)c(C)c2)CC1 — remaining binding (CSF1R autoinhibited; binding, competition with immobilised ligand; 1 µM): 96%
Cc1cnc2nc1Nc1cccc(c1)COC/C=C/COCc1cc(ccc1OCCN1CCOCC1)N2 — remaining binding (CSF1R autoinhibited; binding; 0.1 µM): 46%
Nc1ncc2c(n1)-c1c([nH]c3ccc(C4=CCOCC4)cc13)CCC2 — remaining binding (CSF1R; binding, competition with immobilised ligand; 1 µM): 100%
CC(=O)N1c2ccc(-c3ccc(CNC(=O)c4cn5cc(-c6cnc(N)nc6)nc(N6CCOCC6)c5n4)cc3)cc2CC[C@@H]1C — remaining binding (CSF1R; KINOMEscan; 10 µM): 90%
C=CC(=O)N1CCCC(n2c(=O)c3ncccc3n(Cc3ccc(Oc4ccccc4)cc3)c2=O)C1 (centres unmarked) — remaining binding (CSF1R; cell-free assay, competition with immobilised ligand; 1 µM): 88%
CN1CCN(Cc2ccc(NC(=O)c3cccc(C#Cc4cnc(N)c5ncccc45)c3)cc2C(F)(F)F)CC1 — remaining binding (CSF1R; cell-free assay, competition with immobilised ligand; 0.5 µM): 0.1%
CNS(=O)(=O)Nc1nccc(Cc2c(C)c3ccc(Oc4ncccc4F)cc3oc2=O)c1F — remaining binding (CSF1R; cell-free assay, competition with immobilised ligand; 10 µM): 100%
CCN1CCN(Cc2ccc(C(=O)Nc3ccc(C)c(NCc4cnc5[nH]ccc5c4OC)c3)cc2C(F)(F)F)CC1 — remaining binding (CSF1R autoinhibited; binding, competition with immobilised ligand; 1 µM): 64%
C=CC(=O)N1CCc2ccc(-n3c(=O)ccc4cnc5ccc(-c6cnn(C)c6)cc5c43)cc21 — remaining binding (CSF1R autoinhibited; KINOMEscan; 1 µM; relative to: DMSO control): 85%
COc1c(Cl)cccc1Nc1c(-c2ccncc2C#C[C@@]2(C)CCCN2C(=O)/C=C/CN(C)C)[nH]c2c1C(=O)NCC2 — remaining binding (CSF1R autoinhibited; cell-free assay, competition with immobilised ligand; 3 µM): 97%
COc1cc(Nc2nccc(-c3cnn4nc(OC)ccc34)n2)cc(C(F)(F)F)c1 — remaining binding (CSF1R; binding, competition with immobilised ligand; 1 µM): 91%
COc1ccc(NC(=O)Nc2ccc3c(c2)C(=O)N(C(C)CO)CC(C)C(CN(C)Cc2ccc4c(c2)OCO4)O3)cc1 (centres unmarked) — remaining binding (CSF1R; binding, competition with immobilised ligand; 10 µM): 100%
